Assay results pooled from the literature.
Parts stem from different laboratories: compare values within a part only.

Study 1 — technique: RNA Bind-n-Seq; molecule type: RNA; matrix: in vitro; concentration: not given; reference: input RNA pool; direction: higher = stronger binding
Target: RING finger protein unkempt homolog, zinc fingers 1-6, GST-SBP tag (UNK, Homo sapiens, UniProt Q9C0B0, residues 30-357)
Notes: RNA with constant flanks, human and mouse sites, ends assumed
Shared flanks, not repeated: GGGAGUUCUACAGUCCGACGAUC … CAACAGAGGAUUGAGCAUCA
Target sequence (chain): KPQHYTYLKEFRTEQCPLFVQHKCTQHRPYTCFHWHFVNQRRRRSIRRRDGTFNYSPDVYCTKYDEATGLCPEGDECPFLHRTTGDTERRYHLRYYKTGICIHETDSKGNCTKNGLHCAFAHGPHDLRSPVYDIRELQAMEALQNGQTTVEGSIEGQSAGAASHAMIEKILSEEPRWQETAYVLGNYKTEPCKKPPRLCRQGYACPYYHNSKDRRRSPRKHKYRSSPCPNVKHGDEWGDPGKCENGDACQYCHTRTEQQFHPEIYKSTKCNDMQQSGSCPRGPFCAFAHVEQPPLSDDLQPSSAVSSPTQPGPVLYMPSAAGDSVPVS
Sequence | bound/input enrichment [ratio]
CUCAACACGGUGAAGCAGAAGCUGUUUACCGAGGUGGAGGGGACCUGCACUGGGAAAUAUGGCUUUGUAAUUGCUGUCACCACCAUCGACAAUAUUGGUGCUGGUGUGAUCCAGCCAGGC | 0.0811
ACAGCUGAUUCACUCAUUGGGAGAGCUGCACAUAUAGCUGUUCUUGAUUCGGAAAUAUUUUUAGAGAAAUUCUUUCUGGUUGCUGCCCUCAAAUAUUUCCAAUAGUAUAAAAGCAUUGUU | 6.49
CAUUCUCUUGCACUGUACAGAACAGAUGACUACUUAGAUCAGCCGUGUUGUGAAACCAUUAAUAGAAUUAAACUUUACAGCGAGUCUUUGGCAAGAUACGGUAAAAGCCCGUACCUGUAU | 2.75
AUGCUCUUCAUUGUGUAAAAUUGCUGUUCUUUUGACAAUUUAAGUGAUUGUUUUGUUUACUGUAAGUUUGAAAAUAAAAAUGAAGAAAAAAAUUCCAAUGACUGUGCUGUGGUUGGAGAC | 0.428
AAGAAUCGGAUGAAUUGAUGAAGAGUUGAGUUACCUGCAACCCAUUGAGAAGUGUCCUGUGCGUCUGUUUUGUGUCUGGUGCAGAAAAUGACAAUCUACCAACUGUCCCCUUAUUUGGAG | 0.214
CACUCCCUCCCUCUAACAGCAGGCUGUGUGGGUUUCAAUUCCCAUCCUCCCCACCCUGGCUAGGUGUCGUCCACCCUGUAUCCUAUCAUGUGUCUGUGUGUGGGGGGGUUCUGUACUAAU | 0.218
GAAGGGCAUUGCAACAACAUACAUUGCUUGGCCAAAGCCAUCAACCAGAUUGCUGCAGCUUUGUUUACAAUUCACAAAGGAAGCAUUGAAGACCGUCUUAAAGAAUUUCUGGCGCUUGCA | 0.129
ACGGUCACCAUCCUUGUCAGCCUGGCCCUAGCUUUCCUUGCGUGCAUCGUGUUCCUGGUGGUUUACAAAGCCUUCACCUAUGAUCACAGCUGCCCAGAGGGAUUCGUCUAUAAGCACAAA | 0.114
GAUGUCAUCGAAGACAAAUUGAAGGGAGAGAUGAUGGAUCUCCAACAUGGCAGCCUUUUCCUUAGAACACCAAAGAUUGUCUCUGGCAAAGACUAUAAUGUAACUGCAAACUCCAAGCUG | 0.152
UGUUGCUGCCUUUAUGGACAUGGGUACCAAUUGCUUUUGUAAUAUGGUAAAAAUGUGAGCUAGCACUUCUGCGUUCCUUUUGAUUUUUUUUUUUUAACAUGUAUUCAGAUUGAGAAAUAU | 0.624
AAGUUUCUGGACGGCAAUGAGCUCACCCUGGCUGACUGCAACCUGCUGCCAAAGCUUCACAUAGUACAGGUGGUGUGCAAAAAGUACAGAGGCUUCACCAUCCCAGAGGCAUUCCGUGGA | 0.147

Study 2 — technique: RNA Bind-n-Seq; molecule type: RNA; matrix: in vitro; concentration: 200 nM; notes: whole 134-nt RNA, ends assumed; added: 150 mM KCl; reference: input library; direction: higher = stronger binding
Target: Ras GTPase-activating protein-binding protein 1, full length (G3BP1, Homo sapiens, UniProt Q13283)
Chain of UniProt Q13283 (whole entry, looked up): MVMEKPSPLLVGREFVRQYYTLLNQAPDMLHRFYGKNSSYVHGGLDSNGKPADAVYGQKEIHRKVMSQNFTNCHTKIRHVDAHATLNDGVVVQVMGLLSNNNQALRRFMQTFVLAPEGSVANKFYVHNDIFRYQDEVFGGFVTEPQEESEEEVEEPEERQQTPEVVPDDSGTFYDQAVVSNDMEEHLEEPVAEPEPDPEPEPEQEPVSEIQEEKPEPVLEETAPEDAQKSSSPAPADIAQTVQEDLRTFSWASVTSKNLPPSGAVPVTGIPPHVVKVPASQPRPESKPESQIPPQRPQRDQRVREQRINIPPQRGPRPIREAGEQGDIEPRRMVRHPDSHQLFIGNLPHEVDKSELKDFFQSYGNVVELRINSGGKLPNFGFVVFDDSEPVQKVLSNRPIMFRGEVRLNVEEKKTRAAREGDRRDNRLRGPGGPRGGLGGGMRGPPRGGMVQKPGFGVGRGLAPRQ
Shared flanks, not repeated: GGGAGUUCUACAGUCCGACGAUC … UGGAAUUCUCGGGUGUCAAGG
Sequence | log2 enrichment
CAAGUCCUGUGCUACACAUCGUAUGUACCGAAUCGGGAAAAGGAAAAGGGAAAAGGAAAGUAUUAUGUUACGCCGUUCGGAUCUGCACUU | -0.878
CUCAAGUCCUGUGCUACACAUCGUAUGUACCGAAUCGGGCCGGGGCCGGCCGGGAAAGUAUUAUGUUACGCCGUUCGGAUCUGCACUUCC | -0.392
UCCUCAAGUCCUGUGCUACACAUCGUAUGUACCGAAUCGGUGGGGUGGUGGAAAGUAUUAUGUUACGCCGUUCGGAUCUGCACUUCCAGC | -0.387
CAAGUCCUGUGCUACACAUCGUAUGUACCGAAUCGGAAAGGGGAAAGGGGAAAGGAAAGUAUUAUGUUACGCCGUUCGGAUCUGCACUUC | -0.426
UGGCCCUGGUGGCAUGCGGGGAGGAAGAGGUGGCCUCAUCGAUCGUGGUGGUCCCGGUGGAAUGUUCAGAGGUGGCCGUGGUGGAGACAG | 0.205
CUCAAGUCCUGUGCUACACAUCGUAUGUACCGAAUCGGGUUGGGUUGGUUGGGAAAGUAUUAUGUUACGCCGUUCGGAUCUGCACUUCCA | 0.67
UUAGAUGAGGACCUUGAGAUUGAAUUGGUUGAGGAAGAGCCUCCAUUCCUGAGAGGGCACACUAAGCAAAGCAUGGACAUGAGCCCCAUU | -0.446
AGUCCUGUGCUACACAUCGUAUGUACCGAAUCGGUUUUUUUGGUUUGGAAAAAAAGGAAAGUAUUAUGUUACGCCGUUCGGAUCUGCACU | -1.61
UUCCGCUGUCUUUUCUGUCUACAGUUUGCGAUCCCCGCGUCCAGGAUGGAGCAGCUGAACGAACUGGAGCUGCUGAUGGAGAAGAGUUUU | -0.411
ACCAUGCAGGUGGGCAUCUUUGGGAAGUGGGGCAAGGGGGGGAUAGGGAGGGGGGUAACACUUUGGGAACAGGUGGUCCCAGGUCGUUUG | 1.51
AAGUCCUGUGCUACACAUCGUAUGUACCGAAUCAAAUUUUUAAACCCAAACCCAAAAAAGUAUUAUGUUACGCCGUUCGGAUCUGCACUU | -0.622
GCAGGAAGUAAAAACAAAUGGAAAUGCUUCGGAUAGUGGCAGGAGUGGGGGUUGCUAAGGAAAGGGUGGGAUGGGAGUGGGUAAAGAGUU | 0.965
GAAGAUUGGCUUAAAAUGGCUACUGUGAUGGGAACAGUGUCUUAGGGAGAUGCAGCUUGGACUUGAGGUAAAUUGAAUACUUUACAACUG | 0.0816
UGGCCUUAUCACUCCUGGAGGCUUUUCAUCAGUGCCUGCUGGAAUGGAGACCCCUGAACUCAUUGAGCUGAGGAAGAAGAAGAUUGAGGA | -1.26

Study 3 — technique: RNA Bind-n-Seq; molecule type: RNA; matrix: in vitro; concentration: 365 nM; reference: no-protein control; direction: higher = stronger binding
Target: RNA binding protein fox-1 homolog 2, RRM domain, GST-SBP tag (RBFOX2, Homo sapiens, UniProt O43251-10, residues 100-194)
Notes: natural RNA segment, single round, ends assumed
Shared flanks, not repeated: GGGAGUUCUACAGUCCGACGAUC … UGGAAUUCUCGGGUGCCAA
Construct (chain): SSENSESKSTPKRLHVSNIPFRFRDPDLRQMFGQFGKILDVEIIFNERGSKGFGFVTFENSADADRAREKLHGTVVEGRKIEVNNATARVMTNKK
Sequence | RBNS enrichment (R)
UCCUGUUCCACCUCAGGUUUUCACAGGUGCUCCCACCCCAGUUGAGGCUCCCACCCACAGGGCUGUCUGUCACAAACCCACCUCUGUUGGGAGCUAUUGAGCCACCUGGG | 0.214
CCCCAUCAAUCCCUAAUUUAUUGAGAGUUUUUAGCAUGAAGGGUUGUUGAAUUUUGUCAAAGGCUUUUUCUGCAUCUAUUGAGAUAAUCAUGUGUUUUUUGUCUUUGGCU | 5.63
ACUGGUACAGUCCCAGCUCUGCUCUGGUGUAUGCGAUUUUUGAAAGACCUGUCUUCUGUGAGCUGUGCUCAUGUGCAGUGGAGCAGACCUGCUUCCGCCUGGAGGAGAGC | 0.321
AGGAGGAGACUGUAGCAAGUAAGGCAUAAGAACACUUGCUCUUAUACCCUAGUGGUGGCGGUCAAGCUAACAAGUGUGAAAAUGCCUUUGGCAUUUUUAAAAAAGUGCAA | 0.303
AGAACAGAAGAAUCUGACAGGCACUAAUUGGAUACUGUGGCUUGUUUGGAUAGAAAUUCUGAAUGGAGUGGAGGAAAGGAGAAAUGCCCUCAUCACUGAGGAUCAUGAAA | 0.45
GCCUCCCUACACCUCAUACCCUGCCUGCCUCCUCCAGGAGGAAUCUCCGGGGCCCCUUCCUGACUCUCCCCACCUUCGCCACUUGUCUCUAGGCUAUGGGACAAUCAUCC | 1.65
CUCCUUGUAACCUUCUGUAACUAUUGGAUGACGCUUUCUCCAGCUUAGCCCUAAAUAAAGCACAGUUAAAAAAAUAUUUCUUCAUUGGUCUGUGCCUCUCGGACUCUGGC | 0.62
AUCUAAGUGCCUAGCCCUUCCACCCACCCGCCGUCCACCUCGUCCAUCGGGGACACAGAGUGGCCAGGGCACCCCACCCUUGUCUCCGUGUACCCUAGCUCCCCAUCACU | 0.257
CUCCUUAAUUCUGAGAGCAUGAAUAUUUGACCUUAAAUCUCCAGUGACUCAGAGCUUCACCCACAAACUCAGGAGAACAUAAGCCUGCUCGUAAAGCUCAAUCCUUCUAU | 1.29
UCAGGACAAGGAGGCCUCCCUGGGAGAGGGGGCCUUUCUCCCACCAUCACCGCCUGUGUCCUUCAGGGGCUGCUGGAGGGCAGCCCAAAGCCAGGGGCCCACCCCGCCCC | 0.534
CUGUUAGCCCAGUGAGUUCUCCACAGUUACUGUAUGUGAUCUUCAUGGGCAGCAAAUGGAAAGUCUUCCAAUCAGUACUCCAGGCCUUGAACACGUGCACACAUGAGUUC | 0.32
CUGCCUUGACCCGAGGAGGCAUCUCACUGGUUCCGUACUUGUGUGUGCCCUACGCCUCACUGCUGGGGCCCUGGACCCAGACCCAGGCAGGAGGGCCGACGGGUGCCUCG | 0.494

Study 4 — technique: protein binding microarray; molecule type: double-stranded DNA, one strand shown; matrix: in vitro; concentration: not given; reference: not given; direction: higher = stronger binding
Target: Histone acetyltransferase KAT6A, both winged helices, GST fusion (KAT6A, Homo sapiens, UniProt Q92794, residues 1-181)
Notes: 8-mer, flanks averaged, mean of 2 arrays, mostly near background
Target sequence (chain): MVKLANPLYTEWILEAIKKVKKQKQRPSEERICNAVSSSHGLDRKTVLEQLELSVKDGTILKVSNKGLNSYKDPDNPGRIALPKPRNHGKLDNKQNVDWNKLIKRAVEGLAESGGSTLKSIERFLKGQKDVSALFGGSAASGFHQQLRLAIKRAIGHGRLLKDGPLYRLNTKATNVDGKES
Sequence | E-score
ATTTATGG | -0.076
CCACCTCC | -0.13
CCTAGAGA | -0.142
ATGTAGCA | -0.0756
GGGGTGGA | -0.181
AGGCGTGC | 0.068
GAACCAGA | -0.111
AGCACTCA | -0.164
ACCTGTCT | -0.167
GGCGCGCC | 0.384
AATGAGTA | 0.0146
ACTGAATG | 0.0422
TGCGTCCA | 0.191
CGAAGTGC | 0.0842
TCGACTCA | -0.149
CTGACGGC | 0.235
CAATTCGG | 0.0647
ACCCCGTC | 0.199
TAACCGAA | -0.0283
AGTTCATA | -0.197
AAGGGGTA | -0.287
CTGGCAGA | -0.192

Excerpt of the above (study 4):
Sequence | E-score
CAATTCGG | 0.0647
TCGACTCA | -0.149
ATTTATGG | -0.076
ACCCCGTC | 0.199
AGTTCATA | -0.197
